Results collected from several papers.
Every numbered part comes from another study and shows a few of its results, in no order. Changes are numbered by the printed parent chain.

Series 1
Target: Histone acetyltransferase KAT6A, winged helix 1, GST fusion (KAT6A, Homo sapiens, UniProt Q92794, residues 1-85)
Method: protein binding microarray
Form: double-stranded DNA, one strand shown
Sample: in vitro
Concentration: not given
Setting: 8-mer, flanks averaged, mean of 2 arrays, mostly near background
Reference: not given
Reading: higher = stronger binding
Residues (chain): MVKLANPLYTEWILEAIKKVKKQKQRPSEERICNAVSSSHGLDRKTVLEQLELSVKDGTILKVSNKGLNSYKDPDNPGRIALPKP
`ACGATAGT` gave an E-score of -0.169.
For `GCGCGCGC`, the E-score was 0.48.
With `CGTCGAAA` the E-score was 0.188.
With `ATTACGGG` the E-score was 0.27.
`ACGGGCCT` gave an E-score of 0.339.
The E-score of `ATCCGAAA` is reported as 0.0138.
The E-score of `CCCCCCTC` is reported as -0.292.
For `TATCACGA`, the E-score was -0.22.
`CTAAATGA` has an E-score of -0.139.
The E-score of `GGCGCCGA` is reported as 0.383.
For `GCTACATA`, the E-score was -0.0853.
The E-score of `ATGCACAA` is reported as -0.23.
`CCCGGGCG` gave an E-score of 0.381.
With `ACCGACGT` the E-score was 0.0693.
`CCCAGCCA` gave an E-score of -0.206.
For `AAAGAAGC`, the E-score was -0.0199.
`ATGTAACC` has an E-score of 0.224.
With `TGAGTAAA` the E-score was -0.136.
With `CCAATAAG` the E-score was -0.0802.
For `AAGAGCGT`, the E-score was 0.206.
For `ACATAAGG`, the E-score was -0.0767.

Series 2
Target: Centromere-binding protein 1, full length, His-tagged (CBF1, Saccharomyces cerevisiae, UniProt P17106, residues 1-351)
UniProt P17106, sequence (whole entry, looked up): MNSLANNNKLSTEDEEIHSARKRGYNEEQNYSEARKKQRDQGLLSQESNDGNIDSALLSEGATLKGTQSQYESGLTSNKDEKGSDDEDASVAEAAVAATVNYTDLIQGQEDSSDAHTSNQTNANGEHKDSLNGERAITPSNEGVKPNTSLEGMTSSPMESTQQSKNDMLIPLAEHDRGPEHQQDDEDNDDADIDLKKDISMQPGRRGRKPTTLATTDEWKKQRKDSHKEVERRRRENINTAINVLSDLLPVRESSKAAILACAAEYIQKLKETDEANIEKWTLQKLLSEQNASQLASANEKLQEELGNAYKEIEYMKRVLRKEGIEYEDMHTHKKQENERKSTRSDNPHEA
Method: competition protein-binding microarray
Form: double-stranded DNA, one strand shown
Sample: in vitro
Concentration: 2 µM
Setting: whole 60-bp probe, lowest competitor level
Together with: Pho4 competitor, 0.05 µM
Reading: higher = stronger binding
`CATACCCAACCTTGGGGAGTGGGTGAAGATATTTGTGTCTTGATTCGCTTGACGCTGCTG` gave a fluorescence intensity of 59.7 a.u.
For `CATACCCAACCTTGAGATGTGGGTGAAGATATTTGTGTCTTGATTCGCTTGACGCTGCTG`, the fluorescence intensity was 71 a.u.
For `CACCGATTTGGTAATGCCGTGATGGAACCTCGAGGAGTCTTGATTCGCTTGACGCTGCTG`, the fluorescence intensity was 67.3 a.u.
For `ATGTAGTAACTTTTTGATGTGACGGTCGTTAATACCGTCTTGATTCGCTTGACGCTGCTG`, the fluorescence intensity was 88.2 a.u.
`CGAATCAGGTTTCCCAACGTGTGGACCTCCTTCTCAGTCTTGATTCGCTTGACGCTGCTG` gave a fluorescence intensity of 70 a.u.
`CTTATATCCTGGCTCAACGTGAAGAGATTCTAGATCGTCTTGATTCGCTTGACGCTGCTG` gave a fluorescence intensity of 75.3 a.u.
The fluorescence intensity of `CTAACGAAGGTTTGACTCGTGGGTGACAAGCCAAGTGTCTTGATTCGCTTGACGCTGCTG` is reported as 81.5 a.u.
With `CTAACGAAGGTTTGTGCAGTGGGTGACAAGCCAAGTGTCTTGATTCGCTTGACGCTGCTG` the fluorescence intensity was 71.4 a.u.
With `ATATATACTTTAGCATACGTGTGAATACGCCATATCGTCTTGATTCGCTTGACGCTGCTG` the fluorescence intensity was 133 a.u.
For `CAATACTCTTTGTCCCACGATGCAACTTTGAAAGGTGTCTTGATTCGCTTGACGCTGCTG`, the fluorescence intensity was 71.6 a.u.
For `CCCCATCGGACTCGGCACGATACTGGCGTTGAACGCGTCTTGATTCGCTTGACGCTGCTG`, the fluorescence intensity was 83.3 a.u.
For `GCACCATATTTTAGTTCCGTGATGGTCAAGAATTTTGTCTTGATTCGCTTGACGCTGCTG`, the fluorescence intensity was 129 a.u.
For `CAACGAGCTCTTTGCCACGTATCAACTGGAGAAGAGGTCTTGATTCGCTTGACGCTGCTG`, the fluorescence intensity was 70.5 a.u.
With `TCGCATCCAGGCACACCCGTGTCCTCTTCTTTAATGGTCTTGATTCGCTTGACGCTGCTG` the fluorescence intensity was 73 a.u.
The fluorescence intensity of `CTATCTTCAAAGGTTGTCGTGCCGATGTTGTAATGGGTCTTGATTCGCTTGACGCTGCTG` is reported as 73.9 a.u.
The fluorescence intensity of `TGCTTCTTTGAAAAGCACATGCCGTTTCACCACAGGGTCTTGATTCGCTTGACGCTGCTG` is reported as 114 a.u.
`GGGACTAGGGGATTGCATGTGCGGGGCAGGGGCACTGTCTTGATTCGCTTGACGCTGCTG` has a fluorescence intensity of 138 a.u.
With `CTTCTGTAAATTTATCACGTGTTTTGACGCGCCCCGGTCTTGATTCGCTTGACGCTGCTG` the fluorescence intensity was 4520 a.u.
`TTGGCGTTTGACTGTCACAGTCCCAAATCCTTGCAGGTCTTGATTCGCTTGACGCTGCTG` has a fluorescence intensity of 63.5 a.u.
For `AGGAAGAAAGAGCTGCTCGTGTTGGTGCCAAGATCGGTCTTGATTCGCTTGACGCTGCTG`, the fluorescence intensity was 62.1 a.u.

Series 3
Target: TEF, bZIP domain (human)
Method: DHFR protein complementation
Sample: yeast
Setting: single substitutions, most at no-binding floor
Reference: wild-type JUN-FOS pair
Reading: higher = stronger binding
Starting sequence: JUN, bZIP domain (human); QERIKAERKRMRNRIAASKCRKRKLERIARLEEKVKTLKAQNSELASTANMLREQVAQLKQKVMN; partner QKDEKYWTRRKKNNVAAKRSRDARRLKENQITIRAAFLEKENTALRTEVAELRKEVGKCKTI
`A57M` gave a binding fitness of -1.25 natural log.
`S43P` has a binding fitness of -1.51 natural log.
With `A46H` the binding fitness was -1.62 natural log.
The binding fitness of `E54P` is reported as -1.53 natural log.
`E44W` gave a binding fitness of -1.53 natural log.
The binding fitness of `Q55L` is reported as -1.3 natural log.
The binding fitness of `T37E` is reported as -1.45 natural log.
`I28Q` gave a binding fitness of -1.48 natural log.
`T37S` gave a binding fitness of -1.49 natural log.
`A57K` gave a binding fitness of -1.39 natural log.
The binding fitness of `L52V` is reported as -1.51 natural log.
`T48C` gave a binding fitness of -1.33 natural log.
For `E54H`, the binding fitness was -1.43 natural log.
With `A40Q` the binding fitness was -1.23 natural log.
For `K39R`, the binding fitness was -1.25 natural log.
`L45T` gave a binding fitness of -1.52 natural log.
`Q41M` has a binding fitness of -1.38 natural log.
With `A29I` the binding fitness was -1.47 natural log.
`E33W` has a binding fitness of -1.5 natural log.
For `E33V`, the binding fitness was -1.32 natural log.

Series 4
Target: RING finger protein unkempt homolog, zinc fingers 1-6, SBP tag (UNK, Homo sapiens, UniProt Q9C0B0, residues 30-357)
UniProt Q9C0B0, sequence (30-357, looked up): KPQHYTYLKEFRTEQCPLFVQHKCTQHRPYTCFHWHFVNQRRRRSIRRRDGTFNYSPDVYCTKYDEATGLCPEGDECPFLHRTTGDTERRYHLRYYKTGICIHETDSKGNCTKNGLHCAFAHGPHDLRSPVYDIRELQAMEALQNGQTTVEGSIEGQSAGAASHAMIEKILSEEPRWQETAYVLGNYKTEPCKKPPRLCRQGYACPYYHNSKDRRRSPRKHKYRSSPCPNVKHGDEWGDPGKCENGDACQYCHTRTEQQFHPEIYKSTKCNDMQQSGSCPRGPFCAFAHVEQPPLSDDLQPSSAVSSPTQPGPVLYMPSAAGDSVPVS
Method: RNA Bind-n-Seq
Form: RNA
Sample: in vitro
Concentration: 100 nM
Setting: RNA with constant flanks, vertebrate orthologous sites, ends assumed
Reference: input RNA pool
Reading: higher = stronger binding
For `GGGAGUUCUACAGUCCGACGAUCUUUCACUACUCUGGGAGCGUGACUGAGCAUGAAGCAGCUACCAGCGCUGUAGGGGGUCAAUAGUAUUUUUGCUGCCUCGGAGUCCCCAAAGCCUUCAAGUGGAAGUGGCAGUAGGUUAUUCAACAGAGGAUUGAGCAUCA`, the bound/input enrichment was 0.663 ratio.
The bound/input enrichment of `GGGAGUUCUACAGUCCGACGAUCGGAAUACUGAAAAGACUUCCAUGCUUACGUUAAAUGCUAAAGUUAAGCUGCAGUAUAUUAGUAAAUAAUUACUUUAUUUCUGCAGUAUGGUUUGCUUAUGUUUAAAGUCAGACAGUAGACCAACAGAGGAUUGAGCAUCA` is reported as 0.57 ratio.
With `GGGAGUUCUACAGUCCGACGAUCUCCCAGCACACUGAUAAAAACUGUGGACUGGUUGCUUGUAUUUUCCUUAUUUUUUUUAAUCAGUUUUAUUAUGUAUGCUACCAUUCGAACUGAGAGCAUUCGGUGGUUGAUUCCAGGACACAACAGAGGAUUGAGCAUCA` the bound/input enrichment was 0.696 ratio.
For `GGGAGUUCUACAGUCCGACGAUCAGCUUCUGGUGACAUUUGGCCUGGUCUUUCAGCAUAUGAUAACAGUCCAAGGUCGCCCCAUAGUCCUUCUAUUGCCAGCCCACCCAGUCAGAGUUCAUCUUGCUCUGAUGCCCCCUUGCUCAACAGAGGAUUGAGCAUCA`, the bound/input enrichment was 0.876 ratio.
For `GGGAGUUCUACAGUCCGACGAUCUUCAUUAUUUGACCAGAGUUGAGGUGACAGAAUUUGAAGACAUCAAAUCAGGUUACAGAAUAGAUUUUUAUUUUGAUGAGAAUCCCUACUUUGAAAAUAAAGUUCUCUCCAAAGAGUUUCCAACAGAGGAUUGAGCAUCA`, the bound/input enrichment was 0.583 ratio.
The bound/input enrichment of `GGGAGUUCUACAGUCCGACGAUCUGCUGUUAAUGCACUGUAUUCCAGGCAUCGUCUGAAUUUAGUGUAAUCUAGGAGAUUUUAUAGUUUUAUUUUAAUGAAGUAUGGAUCGAGAAAAAGUUGUUAGGAGUAUGUAGUCUUUUACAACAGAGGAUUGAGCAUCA` is reported as 2.3 ratio.
The bound/input enrichment of `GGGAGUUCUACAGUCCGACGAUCCCGCACUAGAGGGUAGCAUAUGUUUCACAAAGAAGAGUCUUUAUAAUUUUGUUUGUCAUAUAGUAUUUUGGAAUUUGUACAAUGAGGAUGUUUAGAAGCCAUAUCAAUGGCUUUUUUAAACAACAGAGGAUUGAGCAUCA` is reported as 1.16 ratio.
With `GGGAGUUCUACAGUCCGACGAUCUGUUGGUGCAGACUGCUCUCUGUCCCCAGUGCCCAUUGUCCCUUUCACACCGACUGUCCCUAGUUAUAGGAAUUUAAUAUUUUUAAAAGUUUUACAUUGCUGUAUAUUCAAAGAUUUGUUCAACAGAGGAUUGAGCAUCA` the bound/input enrichment was 0.955 ratio.
`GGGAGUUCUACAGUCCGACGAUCCCGAAAGGCCAAAUUCCCUCCUCCCUUCUUCUGCUUCUACCAACUGGAAGCACAGAAAACUAGAAUUUCACUUAUUUUGUUUUUUAAAACAAUAUGAUUUCUUGUAACAUCCAAUAGGAACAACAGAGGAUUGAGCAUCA` has a bound/input enrichment of 0.586 ratio.
`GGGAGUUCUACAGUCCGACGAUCAUAUUGUAUGUAGAGACAAAUUUUCAUUGACCCCAUUGUGAAAUUCCCUAGCAAUUUAUUUAGAAUCUUAAUUUUUCUAAUUAAAGUUCACUGUGUUAGUCAUUUUUAGUAUAAUUAAAACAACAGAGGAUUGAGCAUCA` has a bound/input enrichment of 1.93 ratio.
`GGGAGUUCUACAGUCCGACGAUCGAACUUAUGCUCUUCCAGGGAAGAGAUGAAUUGGGAAAAAACCUUCUCCUUUUUAUAGAUUAGUUUGUUUCUAAAUUAUGACCAAAAAAUAUUUUGCUAUUUCUUUCUUUAUAUAUAGACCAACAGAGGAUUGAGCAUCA` has a bound/input enrichment of 0.925 ratio.

Series 5
Target: CCNB3, cyclin fold, Cln2 fusion (human)
Method: yeast growth competition, sequencing
Sample: yeast
Setting: weak parent motif
Reference: not given
Reading: higher = stronger binding
Starting sequence: NPAT docking peptide (human); PCHRRVLCFDSTT
`F9L` — result for “normalised enrichment score”: 0.0276.
Under “normalised enrichment score”, `T12A` is recorded as 0.288.
`T13A`: “normalised enrichment score” 0.0227.
For `S11A`, “normalised enrichment score” read -0.0611.
`R5A L7A` — result for “normalised enrichment score”: 0.162.
`D10A`: “normalised enrichment score” 0.304.
`R5A`: “normalised enrichment score” 0.153.
`H3A`: “normalised enrichment score” 2.13.
For `R5K F9L`, “normalised enrichment score” read 0.00805.
Under “normalised enrichment score”, `P1A` is recorded as 0.143.

Mixed results
`PhoQ, residues 284 288 289 292 302 303 SVTLVV` has a fold induction of 7.8 (PhoP, residues 12 14 15 18 19 VQALL (Escherichia coli, UniProt P23836); Sort-seq, item: YFP reporter; E. coli; PhoQ-PhoP variant library, together with: 10 µM Mg2+; reference: high Mg2+ state, higher = stronger signaling).

For quick reference, copied from above (series 1):
`ACGGGCCT` gave an E-score of 0.339.
The E-score of `ATCCGAAA` is reported as 0.0138.
The E-score of `CCCCCCTC` is reported as -0.292.
For `TATCACGA`, the E-score was -0.22.
`CTAAATGA` has an E-score of -0.139.
The E-score of `GGCGCCGA` is reported as 0.383.
For `GCTACATA`, the E-score was -0.0853.
